# Experimental data from different studies.
# Each line is one published result; not all experiments were run side by side. Several values in a cell are separate wells, animals, samples, runs or records. ± gives the spread as reported.
Compound,test,test system,setting,measurement,value
CC(C)C[C@@H]1NC(=O)[C@H](CC(N)=O)NC(=O)[C@H](CCCNC(=N)N)NC(=O)[C@H]([C@@H](C)O)NC(=O)[C@@H]2CSSC[C@@H]3NC(=O)[C@H]([C@@H](C)O)NC(=O)CNC(=O)CNC(=O)[C@H](C(C)C)NC(=O)[C@@H]4CSSC[C@H](NC(=O)[C@H]([C@@H](C)O)NC(=O)[C@H](CSSC[C@H](NC(=O)[C@H](C(C)C)NC(=O)[C@@H]5CCCN5C(=O)[C@H](CC(C)C)NC1=O)C(=O)NCC(=O)N[C@@H](CCC(=O)O)C(=O)N[C@@H]([C@@H](C)O)C(=O)N4)NC(=O)CNC(=O)[C@@H]1CCCN1C(=O)[C@H]([C@@H](C)O)NC(=O)[C@H](CC(N)=O)NC3=O)C(=O)N[C@@H](CO)C(=O)N[C@@H](Cc1c[nH]c3ccccc13)C(=O)N1CCC[C@H]1C(=O)N[C@@H](C(C)C)C(=O)N2,HPLC,ammonium bicarbonate 0.1 M,"180 µM, 7 days, pH 9.0, 37 °C, deamidation stability",remaining peptide,98.1 ± 1.5%
CC(=O)OC/C(C)=C/CCP(=O)(OCOC(=O)c1ccccc1)Oc1ccc(C(C)C)cc1 (stereo not drawn),,50% Sprague-Dawley rat plasma,"100 µM, 2 h, pH 7.5, 37 °C",remaining compound,1.1%
CC(C)C[C@@H]1NC(=O)CNC(=O)[C@H](CCCCN)NC(=O)[C@H](CCCNC(=N)N)NC(=O)[C@H]([C@@H](C)O)NC(=O)[C@@H]2CSSC[C@@H]3NC(=O)[C@H]([C@@H](C)O)NC(=O)CNC(=O)CNC(=O)[C@H](C(C)C)NC(=O)[C@@H]4CSSC[C@H](NC(=O)[C@H](CCCCN)NC(=O)[C@H](CSSC[C@H](NC(=O)[C@H](C(C)C)NC(=O)[C@@H]5CCCN5C1=O)C(=O)NCC(=O)N[C@@H](CCC(=O)O)C(=O)N[C@@H]([C@@H](C)O)C(=O)N4)NC(=O)CNC(=O)[C@@H]1CCCN1C(=O)[C@H]([C@@H](C)O)NC(=O)[C@H](CC(N)=O)NC3=O)C(=O)N[C@@H](CO)C(=O)N[C@@H](Cc1c[nH]c3ccccc13)C(=O)N1CCC[C@H]1C(=O)N[C@@H](C(C)C)C(=O)N2,HPLC,ammonium bicarbonate,"180 µM, 14 days, pH 9.0, 25 °C, deamidation stability",remaining peptide,100%
CC[C@H](C)[C@H](NC(=O)[C@H](CCCCN)NC(=O)[C@H](CCCCN)NC(=O)CNC(=O)[C@H](CCCCN)NC(=O)[C@H](CC(C)C)NC(=O)[C@H](CCCCN)NC(=O)[C@H](CCCNC(=N)N)NC(=O)[C@@H](NC(=O)[C@H](CC(C)C)NC(=O)[C@H](CCCNC(=N)N)NC(=O)[C@@H](N)CCCNC(=N)N)[C@@H](C)CC)C(=O)N[C@@H](Cc1ccc(O)cc1)C(=O)N[C@@H](CC(C)C)C(=O)N[C@@H](Cc1ccc(O)cc1)C(=O)N[C@@H](Cc1ccccc1)C(=O)N[C@@H](CCCCN)C(=O)N[C@@H](CC(C)C)C(=O)N[C@@H](CCC(N)=O)C(=O)N[C@@H](CC(C)C)C(=O)N[C@@H](CC(C)C)C(=O)N[C@@H](CCCCN)C(=O)N[C@@H](CCCCN)C(N)=O,LC-MS,25% human serum,"200 µM, 12 h, 37 °C",remaining intact peptide,> 90%
CCCCN1CCC(COC(=O)c2ccc(N)c(O[11CH3])c2)CC1,,rhesus monkey whole blood,"30 min, with: NaF 9.5 mM",remaining parent compound,99.3%
CC(C)C[C@@H]1NC(=O)CNC(=O)[C@H](CC(N)=O)NC(=O)[C@H](CCCNC(=N)N)NC(=O)[C@H]([C@@H](C)O)NC(=O)[C@@H]2CSSC[C@@H]3NC(=O)[C@H]([C@@H](C)O)NC(=O)[C@H](CCCCN)NC(=O)CNC(=O)[C@H](C(C)C)NC(=O)[C@@H]4CSSC[C@H](NC(=O)[C@H]([C@@H](C)O)NC(=O)[C@H](CSSC[C@H](NC(=O)[C@H](C(C)C)NC(=O)[C@@H]5CCCN5C1=O)C(=O)NCC(=O)N[C@@H](CCC(=O)O)C(=O)N[C@@H]([C@@H](C)O)C(=O)N4)NC(=O)CNC(=O)[C@@H]1CCCN1C(=O)[C@H]([C@@H](C)O)NC(=O)[C@H](CC(N)=O)NC3=O)C(=O)N[C@@H](CO)C(=O)N[C@@H](Cc1c[nH]c3ccccc13)C(=O)N1CCC[C@H]1C(=O)N[C@@H](C(C)C)C(=O)N2,HPLC,ammonium bicarbonate 0.1 M,"180 µM, 7 days, pH 9.0, 37 °C, deamidation stability",remaining peptide,76.7 ± 2.7%
CSCC[C@H](NC(=O)[C@H](N)Cc1ccccc1)C(=O)N[C@@H](CCCNC(=N)N)C(=O)N[C@@H](Cc1c[nH]c2ccccc12)C(=O)N[C@@H](CO)C(=O)N[C@@H](CCCNC(=N)N)C(=O)N[C@@H](CCCCN)C(=O)N[C@@H](CCSC)C(=O)N1CCC[C@H]1C(=O)N[C@@H](CS)C(=O)N[C@H](C(=O)N[C@@H](CO)C(N)=O)C(C)C,"12G5 competition, SUP-T1 cells",human plasma,"20 µM, 8 h, 37 °C",remaining activity,46 ± 1%
CC(C)C[C@@H]1NC(=O)CNC(=O)[C@H](CC(N)=O)NC(=O)[C@H](CCCNC(=N)N)NC(=O)[C@H]([C@@H](C)O)NC(=O)[C@@H]2CSSC[C@@H]3NC(=O)[C@H]([C@@H](C)O)NC(=O)CNC(=O)CNC(=O)[C@H](C(C)C)NC(=O)[C@@H]4CSSC[C@H](NC(=O)[C@H](CCCCN)NC(=O)[C@H](CSSC[C@H](NC(=O)[C@H](C(C)C)NC(=O)[C@@H]5CCCN5C1=O)C(=O)NCC(=O)N[C@@H](CCC(=O)O)C(=O)N[C@@H]([C@@H](C)O)C(=O)N4)NC(=O)CNC(=O)[C@@H]1CCCN1C(=O)[C@H]([C@@H](C)O)NC(=O)[C@H](CC(N)=O)NC3=O)C(=O)N[C@@H](CO)C(=O)N[C@@H](Cc1c[nH]c3ccccc13)C(=O)N1CCC[C@H]1C(=O)N[C@@H](C(C)C)C(=O)N2,HPLC,ammonium bicarbonate,"180 µM, 14 days, pH 9.0, 25 °C, deamidation stability",remaining peptide,91 ± 0.9%
CSCC[C@H](NC(=O)[C@H](CCCCN)NC(=O)[C@H](CCCNC(=N)N)NC(=O)[C@H](CO)NC(=O)[C@H](Cc1c[nH]c2ccccc12)NC(=O)[C@H](CCCNC(=N)N)NC(=O)[C@H](CC(C)C)NC(=O)[C@H](N)Cc1ccccc1)C(=O)N1CCC[C@H]1C(=O)N[C@@H](CS)C(=O)N[C@H](C(=O)N[C@@H](CO)C(N)=O)C(C)C,"12G5 competition, SUP-T1 cells",human plasma,"concentration not given, 8 h",remaining activity,48 ± 6%
CC(C)[C@@H]1NC(=O)CNC(=O)[C@H](CC(N)=O)NC(=O)[C@H](CCCNC(=N)N)NC(=O)[C@H](Cc2ccc(O)cc2)NC(=O)[C@H](C(C)C)NC(=O)[C@@H](NC(=O)[C@@H](NC(=O)[C@H](CC(N)=O)NC(=O)[C@H](Cc2c[nH]c3ccccc23)NC(=O)[C@H](C)NC(=O)[C@H](Cc2ccccc2)NC(=O)CN)C(C)C)CSSC[C@@H](C(=O)N[C@@H](Cc2cnc[nH]2)C(=O)N[C@@H](CCCNC(=N)N)C(=O)N[C@@H](CCCNC(=N)N)C(=O)N[C@@H](C)C(=O)N[C@@H](CC(N)=O)C(N)=O)NC(=O)[C@H](C(C)C)NC(=O)[C@H](CCCNC(=N)N)NC1=O,HPLC,mouse kidney homogenate,"2560 µM, 4.00 h, 37 °C, 50 mg/mL tissue",remaining peptide,36.9% and 43.9% and 40.5%
CC[C@@H](C)[C@@H](NC(C)=O)C(=O)N[C@@H](CC(C)C)C(=O)N[C@@H](CCCNC(=N)N)C(=O)N[C@@H](Cc1c[nH]c2ccccc12)C(=O)N[C@@H](CO)C(=O)N[C@@H](CCCNC(=N)N)C(=O)N[C@@H](CCCCN)C(=O)N[C@@H](CC(C)C)C(=O)N1CCC[C@H]1C(=O)N[C@@H](CS)C(=O)N[C@H](C(=O)N[C@@H](CO)C(N)=O)C(C)C,"12G5 competition, SUP-T1 cells",human plasma,"20 µM, 2 h, 37 °C",remaining activity,60 ± 8%
CC[C@@H](C)[C@@H](NC(=O)[C@@H](Cc1ccc(O)cc1)NC(=O)[C@H]1CCCN1C(=O)[C@@H](CCCNC(=N)N)NC(=O)[C@H](N)Cc1c[nH]cn1)C(=O)N[C@H](C)C(=O)N[C@H](Cc1c[nH]cn1)C(=O)N[C@H](CCCNC(=N)N)C(=O)N[C@@H](C(=O)N[C@H](Cc1ccc(O)cc1)C(=O)N[C@H](CO)C(=O)N[C@H](Cc1ccccc1)C(N)=O)C(C)C,,10% human serum,72 h,remaining compound,93.1% and 92.4% and 91.6%

# For quick reference, copied from above:
Compound,test,test system,setting,measurement,value
CC(=O)OC/C(C)=C/CCP(=O)(OCOC(=O)c1ccccc1)Oc1ccc(C(C)C)cc1 (stereo not drawn),,50% Sprague-Dawley rat plasma,"100 µM, 2 h, pH 7.5, 37 °C",remaining compound,1.1%
